Published values collected from several papers.
Numbered parts are unrelated; each lists some results of a single study.
Sequence of UniProt O43293 (whole entry, looked up): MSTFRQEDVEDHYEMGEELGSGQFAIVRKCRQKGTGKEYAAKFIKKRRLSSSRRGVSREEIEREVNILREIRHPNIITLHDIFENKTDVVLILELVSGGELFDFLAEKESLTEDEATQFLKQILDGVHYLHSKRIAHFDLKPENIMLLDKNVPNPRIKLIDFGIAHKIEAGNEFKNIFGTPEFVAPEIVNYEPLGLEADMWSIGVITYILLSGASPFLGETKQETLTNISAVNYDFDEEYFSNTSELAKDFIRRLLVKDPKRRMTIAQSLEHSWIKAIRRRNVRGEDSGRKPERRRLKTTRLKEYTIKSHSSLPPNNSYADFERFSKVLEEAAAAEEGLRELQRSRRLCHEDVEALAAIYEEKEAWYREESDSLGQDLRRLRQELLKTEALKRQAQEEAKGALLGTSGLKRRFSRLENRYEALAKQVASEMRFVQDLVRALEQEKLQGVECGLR
Sequence of UniProt Q12851 (whole entry, looked up): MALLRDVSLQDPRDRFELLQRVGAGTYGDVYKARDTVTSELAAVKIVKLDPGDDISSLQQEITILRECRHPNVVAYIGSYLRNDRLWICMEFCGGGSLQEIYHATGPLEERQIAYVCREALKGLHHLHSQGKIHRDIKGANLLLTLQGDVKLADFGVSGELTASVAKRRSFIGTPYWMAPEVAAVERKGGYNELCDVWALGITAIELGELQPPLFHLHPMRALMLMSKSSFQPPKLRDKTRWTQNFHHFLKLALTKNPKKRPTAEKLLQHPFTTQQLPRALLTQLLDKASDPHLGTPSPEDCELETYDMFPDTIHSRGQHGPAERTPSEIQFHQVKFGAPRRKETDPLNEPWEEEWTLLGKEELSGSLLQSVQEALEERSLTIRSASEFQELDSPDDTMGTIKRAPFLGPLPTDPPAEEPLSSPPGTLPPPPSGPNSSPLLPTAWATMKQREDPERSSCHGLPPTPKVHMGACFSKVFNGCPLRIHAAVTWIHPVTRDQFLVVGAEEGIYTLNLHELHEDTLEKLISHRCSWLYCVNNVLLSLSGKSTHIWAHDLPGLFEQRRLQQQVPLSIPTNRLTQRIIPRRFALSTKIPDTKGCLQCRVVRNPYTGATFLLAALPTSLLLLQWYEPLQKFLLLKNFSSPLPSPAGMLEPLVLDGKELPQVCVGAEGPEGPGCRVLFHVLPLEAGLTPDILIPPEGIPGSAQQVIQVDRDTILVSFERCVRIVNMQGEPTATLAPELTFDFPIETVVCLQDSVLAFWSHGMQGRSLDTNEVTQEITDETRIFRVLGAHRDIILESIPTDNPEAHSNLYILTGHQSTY
Sequence of UniProt O75747 (whole entry, looked up): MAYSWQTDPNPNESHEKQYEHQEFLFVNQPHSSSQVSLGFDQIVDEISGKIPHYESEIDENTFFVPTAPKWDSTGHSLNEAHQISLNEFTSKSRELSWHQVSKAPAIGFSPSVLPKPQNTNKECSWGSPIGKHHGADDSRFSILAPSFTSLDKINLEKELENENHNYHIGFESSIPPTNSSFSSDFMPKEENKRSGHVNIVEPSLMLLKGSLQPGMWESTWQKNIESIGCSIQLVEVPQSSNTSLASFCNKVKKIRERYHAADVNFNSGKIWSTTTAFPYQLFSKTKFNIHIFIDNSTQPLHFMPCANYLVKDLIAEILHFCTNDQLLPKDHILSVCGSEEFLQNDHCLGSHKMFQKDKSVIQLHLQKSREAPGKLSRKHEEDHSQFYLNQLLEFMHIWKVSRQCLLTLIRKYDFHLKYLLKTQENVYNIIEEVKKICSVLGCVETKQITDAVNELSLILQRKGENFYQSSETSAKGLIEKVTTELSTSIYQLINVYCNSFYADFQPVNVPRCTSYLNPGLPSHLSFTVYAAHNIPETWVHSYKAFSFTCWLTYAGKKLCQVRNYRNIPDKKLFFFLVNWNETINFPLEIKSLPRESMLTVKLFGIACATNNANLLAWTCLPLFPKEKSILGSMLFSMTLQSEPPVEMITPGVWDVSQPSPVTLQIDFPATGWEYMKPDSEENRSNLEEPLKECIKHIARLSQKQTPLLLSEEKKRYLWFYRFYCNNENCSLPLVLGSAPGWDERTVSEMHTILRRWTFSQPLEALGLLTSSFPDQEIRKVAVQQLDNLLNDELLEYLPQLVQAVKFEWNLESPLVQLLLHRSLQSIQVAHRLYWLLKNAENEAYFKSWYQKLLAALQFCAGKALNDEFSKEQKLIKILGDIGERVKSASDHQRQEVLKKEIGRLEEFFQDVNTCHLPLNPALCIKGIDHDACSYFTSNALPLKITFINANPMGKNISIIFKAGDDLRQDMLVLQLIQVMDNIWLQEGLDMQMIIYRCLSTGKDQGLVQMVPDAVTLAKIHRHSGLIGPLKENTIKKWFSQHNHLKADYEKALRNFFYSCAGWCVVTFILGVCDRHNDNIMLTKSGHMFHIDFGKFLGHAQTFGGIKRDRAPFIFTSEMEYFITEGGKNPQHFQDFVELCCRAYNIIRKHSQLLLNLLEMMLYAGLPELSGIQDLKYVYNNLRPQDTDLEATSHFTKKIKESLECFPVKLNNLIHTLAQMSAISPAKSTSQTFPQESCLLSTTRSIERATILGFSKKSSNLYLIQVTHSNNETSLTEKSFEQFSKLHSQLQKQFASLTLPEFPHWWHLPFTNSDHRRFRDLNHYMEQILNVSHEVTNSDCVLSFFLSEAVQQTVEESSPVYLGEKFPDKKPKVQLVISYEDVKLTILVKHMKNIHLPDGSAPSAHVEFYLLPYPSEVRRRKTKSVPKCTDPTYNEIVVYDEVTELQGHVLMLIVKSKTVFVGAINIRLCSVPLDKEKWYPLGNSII
Sequence of UniProt Q9H1R3 (whole entry, looked up): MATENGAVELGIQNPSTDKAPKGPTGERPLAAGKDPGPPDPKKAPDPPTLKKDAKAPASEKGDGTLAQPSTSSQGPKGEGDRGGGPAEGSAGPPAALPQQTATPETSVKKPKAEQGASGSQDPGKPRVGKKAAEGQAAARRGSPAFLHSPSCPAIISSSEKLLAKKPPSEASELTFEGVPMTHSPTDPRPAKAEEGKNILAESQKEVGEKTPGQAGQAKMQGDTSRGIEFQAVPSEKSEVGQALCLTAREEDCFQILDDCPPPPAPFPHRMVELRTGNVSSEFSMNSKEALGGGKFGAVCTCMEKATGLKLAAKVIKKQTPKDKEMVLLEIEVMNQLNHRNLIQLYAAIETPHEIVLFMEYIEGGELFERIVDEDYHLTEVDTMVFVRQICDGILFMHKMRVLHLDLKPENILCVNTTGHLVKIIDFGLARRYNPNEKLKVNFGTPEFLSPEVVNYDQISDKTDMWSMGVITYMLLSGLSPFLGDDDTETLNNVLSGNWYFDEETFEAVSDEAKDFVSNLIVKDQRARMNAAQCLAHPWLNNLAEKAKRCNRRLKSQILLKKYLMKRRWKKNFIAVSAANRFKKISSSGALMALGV
Sequence of UniProt Q86Z02 (whole entry, looked up): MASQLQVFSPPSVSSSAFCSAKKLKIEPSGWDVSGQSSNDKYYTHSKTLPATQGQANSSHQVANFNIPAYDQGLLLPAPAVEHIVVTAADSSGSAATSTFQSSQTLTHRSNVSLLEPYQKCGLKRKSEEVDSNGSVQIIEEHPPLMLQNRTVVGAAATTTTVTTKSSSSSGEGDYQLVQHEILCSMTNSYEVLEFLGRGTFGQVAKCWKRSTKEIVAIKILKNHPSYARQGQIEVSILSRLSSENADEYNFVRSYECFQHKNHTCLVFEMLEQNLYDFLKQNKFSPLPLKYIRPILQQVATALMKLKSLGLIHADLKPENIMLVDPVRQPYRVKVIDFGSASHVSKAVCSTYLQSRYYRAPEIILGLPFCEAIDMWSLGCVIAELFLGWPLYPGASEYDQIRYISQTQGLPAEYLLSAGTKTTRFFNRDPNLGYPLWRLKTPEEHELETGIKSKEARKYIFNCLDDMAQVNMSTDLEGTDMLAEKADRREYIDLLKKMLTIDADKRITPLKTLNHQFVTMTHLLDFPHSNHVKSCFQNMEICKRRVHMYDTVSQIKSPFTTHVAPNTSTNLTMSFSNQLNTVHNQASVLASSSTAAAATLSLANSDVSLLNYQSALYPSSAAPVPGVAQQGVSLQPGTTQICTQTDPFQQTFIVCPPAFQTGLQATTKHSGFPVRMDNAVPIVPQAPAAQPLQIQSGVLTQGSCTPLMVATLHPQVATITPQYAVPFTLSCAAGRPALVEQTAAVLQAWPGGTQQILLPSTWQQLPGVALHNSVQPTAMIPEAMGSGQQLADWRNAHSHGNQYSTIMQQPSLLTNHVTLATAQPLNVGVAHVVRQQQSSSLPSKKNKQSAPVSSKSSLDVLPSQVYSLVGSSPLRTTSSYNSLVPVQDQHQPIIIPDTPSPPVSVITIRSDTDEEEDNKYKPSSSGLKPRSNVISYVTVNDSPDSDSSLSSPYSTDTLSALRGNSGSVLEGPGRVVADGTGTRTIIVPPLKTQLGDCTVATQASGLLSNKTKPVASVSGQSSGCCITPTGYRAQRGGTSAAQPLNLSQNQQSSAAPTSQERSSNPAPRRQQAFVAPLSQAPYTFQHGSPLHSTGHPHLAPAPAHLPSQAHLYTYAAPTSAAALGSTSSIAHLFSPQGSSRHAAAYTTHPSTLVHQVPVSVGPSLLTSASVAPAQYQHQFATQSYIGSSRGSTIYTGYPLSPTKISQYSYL
Sequence of UniProt Q8IY84 (whole entry, looked up): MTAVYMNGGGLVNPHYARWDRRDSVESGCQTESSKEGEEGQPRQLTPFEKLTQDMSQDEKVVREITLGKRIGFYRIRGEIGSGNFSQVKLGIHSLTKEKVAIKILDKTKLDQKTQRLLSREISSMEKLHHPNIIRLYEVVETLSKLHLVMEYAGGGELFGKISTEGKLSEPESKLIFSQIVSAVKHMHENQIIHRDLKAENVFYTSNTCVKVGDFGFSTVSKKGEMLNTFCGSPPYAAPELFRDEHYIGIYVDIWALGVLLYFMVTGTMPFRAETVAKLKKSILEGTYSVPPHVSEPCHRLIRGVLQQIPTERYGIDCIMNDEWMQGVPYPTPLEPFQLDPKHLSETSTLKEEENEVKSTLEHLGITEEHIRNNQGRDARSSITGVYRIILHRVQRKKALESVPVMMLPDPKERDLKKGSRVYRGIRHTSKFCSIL

Study 1
Cell line: mouse MPNST tumor cells
Method: high-content nuclear imaging
Item: cell number
Tested at: 10 µM
Time: 12 h
Setting: mean of 2 replicates
Baseline: plate mean
Direction: higher = more cells
Endpoint: nuclei count
C=CCN1CCCC1CNC(=O)c1cc2nn[nH]c2cc1OC (stereo not drawn): 0.323 z-score
CCN1CCN(Cc2ccc(C(=O)Nc3ccc(C)c(Oc4ccc5c(c4)CC(=O)N5)c3)cc2C(F)(F)F)CC1: -4.84 z-score
CC(COc1ccccc1)NC(C)C(O)c1ccc(O)cc1 (stereo not drawn): 0.464 z-score
CC(=O)SCC(Cc1ccccc1)C(=O)NCC(=O)OCc1ccccc1 (stereo not drawn): -0.326 z-score
Cc1c(-c2ccc(O)cc2)nn(-c2ccc(O)cc2)c1-c1ccc(OCCN2CCCCC2)cc1: -6.14 z-score
NC1(C(=O)N[C@@H](CCO)c2ccc(Cl)cc2)CCN(c2ncnc3[nH]ccc23)CC1: 1.32 z-score
O=C(OCCN1CCOCC1)C1(c2ccccc2)CCCCC1: 0.528 z-score
COc1ccc2c(c1)N(C[C@H](C)CN(C)C)c1ccccc1S2: -1.16 z-score

Study 2
SMILES: CCS(=O)(=O)c1cc2cc(C[C@@](O)(CC(C)(C)c3ccc(F)cc3C(N)=O)C(F)(F)F)[nH]c2cn1
Observed: cell-free assay
Method: competition with immobilised ligand
Tested at: 1 µM
Endpoint: remaining binding
NIM1K (Homo sapiens, UniProt Q8IY84): 51%
PIK3C2G (Homo sapiens, UniProt O75747): 100%
HIPK1 (Homo sapiens, UniProt Q86Z02): 90%
MAP3K20 (Homo sapiens, UniProt Q9NYL2): 100%
MAP4K2 (Homo sapiens, UniProt Q12851): 80%
DAPK3 (Homo sapiens, UniProt O43293): 100%
PTK2B (Homo sapiens, UniProt Q14289): 100%
MYLK2 (Homo sapiens, UniProt Q9H1R3): 100%

Study 3
SMILES: COc1cc(C(=O)N2CCC(N3CCN(C)CC3)CC2)ccc1Nc1ncc2c(n1)N(C)c1ccccc1C(=O)N2C
Method: KINOMEscan
Tested at: 10 µM
Baseline: DMSO control
Direction: lower = stronger binding
Endpoint: binding
FLT1: 100%
MEK5: 85%
GSK3A: 100%
DAPK2: 67%
MEK4: 100%
STK36: 97%
MST3: 87%
PRKD2: 59%
SBK1: 100%
SNRK: 94%
MLK1: 93%

Study 4
Target: Death-associated protein kinase 3 (DAPK3, Homo sapiens, UniProt O43293)
Observed: enzyme activity
Action: inhibitor
Tested at: 0.5 µM
Baseline: control
Endpoint: remaining activity
O=C(Nc1cccc(Nc2nccc(Nc3cccc(C(F)(F)F)c3)n2)c1)C1CC1: 94.3%
O=c1cc(-c2cccc3c2Sc2ccccc2S3)oc(N2CCOCC2)c1: 106%
O=C(NC(NC(=S)Nc1ccc(F)c([N+](=O)[O-])c1)C(Cl)(Cl)Cl)C(c1ccccc1)c1ccccc1 (stereo not drawn): 103%
O=C1C(Cl)=C(N2C(=O)CCC2=O)C(=O)c2ccccc21: 114%
CCN(CC)CCNC(=O)c1c(C)[nH]c(/C=C2\C(=O)Nc3ccc(F)cc32)c1C: 74.2%
C[C@@H]1CCN(C(=O)CC#N)C[C@@H]1N(C)c1ncnc2[nH]ccc12: 106%
CN([C@@H](Cc1ccc(OS(=O)(=O)c2cccc3cnccc23)cc1)C(=O)N1CCN(c2ccccc2)CC1)S(=O)(=O)c1cccc2cnccc12: 106%
CN(C)C[C@H]1CCn2c(c(C3=C(c4cn(C)c5ccccc45)C(=O)NC3=O)c3ccccc32)C1: 95.2%
CCOc1nc(NC(=O)Cc2cc(OC)ccc2OC)cc(N)c1C#N: 111%
N#C/C(=C\c1ccc(O)c(O)c1)C(=O)NCc1ccccc1: 86.5%
COc1cc2ncnc(Nc3ccc(O)c(Br)c3)c2cc1OC: 99.1%
Cn1nc2c3c(cccc31)C(=O)c1ccccc1-2: 102%
COc1cc2ncnc(Nc3cccc(Cl)c3)c2cc1OC: 94.6%
Cc1cn(-c2cc(NC(=O)c3ccc(C)c(Nc4nccc(-c5cccnc5)n4)c3)cc(C(F)(F)F)c2)cn1: 97%
COc1cc2c(cc1OC)-c1[nH]nc(Nc3cccc(F)c3)c1C2: 100%
Nc1cccc(-c2cc3c(Oc4cccc(O)c4)ncnc3[nH]2)c1: 94%
CCN(CC)CCNC(=O)c1c(C)[nH]c(/C=C2\C(=O)Nc3ccc(Cl)cc32)c1C: 54.3%
Cc1cc2ncc(-c3ccccc3)nc2cc1C: 90.3%
O=C1c2ccccc2-c2n[nH]c3cccc1c23: 88.4%
c1ccc(-c2[nH]ncc2-c2ccnc3ccccc23)nc1: 101%
Ic1cccc(CSc2nnc(-c3ccncc3)o2)c1: 107%
N#Cc1c(NC(=O)c2cccc3ccccc23)sc2c1CCCC2: 110%
c1ccc(-c2cnc(Nc3ccc(OCCN4CCCC4)cc3)s2)cc1: 105%
CCN(CC)C(=O)c1ccc(Nc2nc(OCC3CCCCC3)c3[nH]cnc3n2)cc1: 98.4%

Excerpt of the above (study 2):
MAP4K2 (Homo sapiens, UniProt Q12851): 80%
DAPK3 (Homo sapiens, UniProt O43293): 100%
PTK2B (Homo sapiens, UniProt Q14289): 100%
